Published values collected from several papers.
A part holds a random share of what one study measured. Several values in a cell are separate wells, animals, samples, runs or records.
Sequence of UniProt Q99808 (whole entry, unmodified, looked up): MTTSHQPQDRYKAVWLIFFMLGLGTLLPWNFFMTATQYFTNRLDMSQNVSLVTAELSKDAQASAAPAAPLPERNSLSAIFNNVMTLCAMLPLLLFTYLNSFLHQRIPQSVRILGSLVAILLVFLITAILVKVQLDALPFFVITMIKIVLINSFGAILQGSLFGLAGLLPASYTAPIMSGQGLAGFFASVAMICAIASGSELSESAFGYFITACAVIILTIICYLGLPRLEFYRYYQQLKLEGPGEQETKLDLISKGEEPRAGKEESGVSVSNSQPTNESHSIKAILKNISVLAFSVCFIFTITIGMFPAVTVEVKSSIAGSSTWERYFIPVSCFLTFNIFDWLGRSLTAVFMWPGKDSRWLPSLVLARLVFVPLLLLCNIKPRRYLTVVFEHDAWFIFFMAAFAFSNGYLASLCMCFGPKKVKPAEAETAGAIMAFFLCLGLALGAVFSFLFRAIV
Sequence of UniProt Q8IVW4 (whole entry, looked up): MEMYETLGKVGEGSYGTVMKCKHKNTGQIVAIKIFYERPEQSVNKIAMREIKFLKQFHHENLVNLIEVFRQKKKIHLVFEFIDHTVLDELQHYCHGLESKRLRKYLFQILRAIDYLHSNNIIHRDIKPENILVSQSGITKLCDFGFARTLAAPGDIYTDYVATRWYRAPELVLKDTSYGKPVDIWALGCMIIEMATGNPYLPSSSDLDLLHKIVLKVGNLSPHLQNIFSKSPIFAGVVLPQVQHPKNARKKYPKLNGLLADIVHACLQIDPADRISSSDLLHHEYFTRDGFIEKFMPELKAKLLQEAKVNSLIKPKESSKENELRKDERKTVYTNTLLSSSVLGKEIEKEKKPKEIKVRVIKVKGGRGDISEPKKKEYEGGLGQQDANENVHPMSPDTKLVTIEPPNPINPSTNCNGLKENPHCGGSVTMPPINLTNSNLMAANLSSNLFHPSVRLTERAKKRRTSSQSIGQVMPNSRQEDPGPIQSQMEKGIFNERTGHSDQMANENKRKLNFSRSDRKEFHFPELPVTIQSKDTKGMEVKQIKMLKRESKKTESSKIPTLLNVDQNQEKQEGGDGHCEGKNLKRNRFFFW
Sequence of UniProt P10721 (whole entry, unmodified, looked up): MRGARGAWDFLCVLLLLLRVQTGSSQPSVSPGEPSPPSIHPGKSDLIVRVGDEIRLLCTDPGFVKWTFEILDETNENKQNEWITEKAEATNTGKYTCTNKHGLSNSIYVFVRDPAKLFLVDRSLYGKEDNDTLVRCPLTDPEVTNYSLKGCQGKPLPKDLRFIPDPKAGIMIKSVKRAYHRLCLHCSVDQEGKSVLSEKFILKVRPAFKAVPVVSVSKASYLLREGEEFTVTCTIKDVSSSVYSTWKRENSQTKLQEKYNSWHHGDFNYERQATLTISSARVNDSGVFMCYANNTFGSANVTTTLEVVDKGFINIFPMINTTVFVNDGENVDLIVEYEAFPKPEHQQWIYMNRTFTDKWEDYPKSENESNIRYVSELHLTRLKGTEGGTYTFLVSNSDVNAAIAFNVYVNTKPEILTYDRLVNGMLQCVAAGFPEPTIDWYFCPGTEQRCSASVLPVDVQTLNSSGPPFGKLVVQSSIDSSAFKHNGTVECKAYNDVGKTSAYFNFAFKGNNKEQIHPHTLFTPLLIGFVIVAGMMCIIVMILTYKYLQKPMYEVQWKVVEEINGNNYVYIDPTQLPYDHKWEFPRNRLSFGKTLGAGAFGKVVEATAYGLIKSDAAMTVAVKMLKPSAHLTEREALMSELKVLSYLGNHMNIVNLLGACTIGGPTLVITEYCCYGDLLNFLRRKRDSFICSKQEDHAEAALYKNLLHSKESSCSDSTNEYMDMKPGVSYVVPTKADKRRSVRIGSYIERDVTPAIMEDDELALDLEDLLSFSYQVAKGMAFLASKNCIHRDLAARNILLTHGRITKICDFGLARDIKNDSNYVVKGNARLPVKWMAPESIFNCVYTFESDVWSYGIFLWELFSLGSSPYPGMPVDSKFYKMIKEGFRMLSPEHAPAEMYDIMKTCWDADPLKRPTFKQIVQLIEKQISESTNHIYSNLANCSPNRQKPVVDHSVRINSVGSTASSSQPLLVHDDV
Sequence of UniProt O75460 (whole entry, looked up): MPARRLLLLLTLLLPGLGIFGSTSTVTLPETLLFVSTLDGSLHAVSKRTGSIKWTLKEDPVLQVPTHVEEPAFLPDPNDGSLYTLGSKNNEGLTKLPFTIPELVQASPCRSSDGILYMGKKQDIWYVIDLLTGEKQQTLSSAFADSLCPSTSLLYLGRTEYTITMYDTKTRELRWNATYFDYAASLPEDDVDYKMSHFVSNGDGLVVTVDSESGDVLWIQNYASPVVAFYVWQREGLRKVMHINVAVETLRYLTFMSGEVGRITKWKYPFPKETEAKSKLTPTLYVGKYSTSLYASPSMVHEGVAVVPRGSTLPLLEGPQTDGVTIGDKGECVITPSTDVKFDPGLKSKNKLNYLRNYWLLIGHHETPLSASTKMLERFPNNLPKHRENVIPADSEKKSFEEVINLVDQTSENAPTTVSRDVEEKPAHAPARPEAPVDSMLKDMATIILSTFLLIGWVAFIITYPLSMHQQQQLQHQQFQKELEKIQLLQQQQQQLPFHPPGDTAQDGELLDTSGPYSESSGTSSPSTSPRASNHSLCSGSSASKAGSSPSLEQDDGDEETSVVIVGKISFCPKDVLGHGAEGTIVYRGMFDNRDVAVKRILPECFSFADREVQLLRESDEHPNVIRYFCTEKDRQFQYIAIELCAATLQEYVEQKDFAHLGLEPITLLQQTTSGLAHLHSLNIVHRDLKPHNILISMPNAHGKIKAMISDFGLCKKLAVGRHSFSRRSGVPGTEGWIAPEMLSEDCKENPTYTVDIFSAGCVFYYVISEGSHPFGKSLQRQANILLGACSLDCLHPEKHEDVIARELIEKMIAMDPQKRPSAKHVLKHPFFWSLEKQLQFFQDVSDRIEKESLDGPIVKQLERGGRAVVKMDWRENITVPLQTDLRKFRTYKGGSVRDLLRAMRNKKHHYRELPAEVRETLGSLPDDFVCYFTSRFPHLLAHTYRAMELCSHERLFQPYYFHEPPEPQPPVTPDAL
Sequence of UniProt P23458 (whole entry, looked up): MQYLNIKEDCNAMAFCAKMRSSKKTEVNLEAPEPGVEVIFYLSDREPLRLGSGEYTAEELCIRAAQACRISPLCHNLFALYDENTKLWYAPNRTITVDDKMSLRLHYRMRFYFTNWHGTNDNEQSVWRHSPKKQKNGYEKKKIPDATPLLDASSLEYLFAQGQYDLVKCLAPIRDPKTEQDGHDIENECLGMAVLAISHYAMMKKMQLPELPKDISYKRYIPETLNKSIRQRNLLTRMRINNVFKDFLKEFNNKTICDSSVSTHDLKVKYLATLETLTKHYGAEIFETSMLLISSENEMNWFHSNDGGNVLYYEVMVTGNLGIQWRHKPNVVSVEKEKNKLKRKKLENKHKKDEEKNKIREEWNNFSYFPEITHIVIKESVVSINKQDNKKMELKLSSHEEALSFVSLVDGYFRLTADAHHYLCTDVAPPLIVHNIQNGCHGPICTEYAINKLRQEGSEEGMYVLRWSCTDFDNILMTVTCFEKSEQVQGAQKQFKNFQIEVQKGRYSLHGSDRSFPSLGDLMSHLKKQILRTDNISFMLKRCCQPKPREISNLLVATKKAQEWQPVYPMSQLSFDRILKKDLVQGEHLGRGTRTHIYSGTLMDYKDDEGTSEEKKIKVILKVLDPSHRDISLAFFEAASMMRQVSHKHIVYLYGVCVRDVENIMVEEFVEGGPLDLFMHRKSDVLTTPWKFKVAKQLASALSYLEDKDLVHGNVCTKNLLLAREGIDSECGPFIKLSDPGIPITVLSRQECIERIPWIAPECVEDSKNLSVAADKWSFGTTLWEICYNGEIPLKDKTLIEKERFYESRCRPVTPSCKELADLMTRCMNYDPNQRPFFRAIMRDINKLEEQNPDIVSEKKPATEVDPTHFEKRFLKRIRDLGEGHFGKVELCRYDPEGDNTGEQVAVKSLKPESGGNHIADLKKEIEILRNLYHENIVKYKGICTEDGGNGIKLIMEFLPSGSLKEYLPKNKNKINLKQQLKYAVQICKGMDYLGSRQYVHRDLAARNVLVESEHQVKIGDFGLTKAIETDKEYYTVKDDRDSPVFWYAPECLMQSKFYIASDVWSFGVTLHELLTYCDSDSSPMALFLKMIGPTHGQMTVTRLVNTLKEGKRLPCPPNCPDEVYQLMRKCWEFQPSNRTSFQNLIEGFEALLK
Sequence of UniProt Q00532 (whole entry, looked up): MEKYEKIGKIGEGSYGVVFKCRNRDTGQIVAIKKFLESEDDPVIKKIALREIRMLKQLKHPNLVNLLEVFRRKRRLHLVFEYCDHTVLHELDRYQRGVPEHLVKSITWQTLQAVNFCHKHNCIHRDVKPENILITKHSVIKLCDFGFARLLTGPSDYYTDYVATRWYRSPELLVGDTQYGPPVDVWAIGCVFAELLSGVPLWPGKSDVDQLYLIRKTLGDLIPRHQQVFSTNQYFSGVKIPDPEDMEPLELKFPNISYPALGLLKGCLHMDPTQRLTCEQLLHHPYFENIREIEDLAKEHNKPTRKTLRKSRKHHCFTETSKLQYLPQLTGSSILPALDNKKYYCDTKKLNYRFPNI
Sequence of UniProt Q13177 (whole entry, looked up): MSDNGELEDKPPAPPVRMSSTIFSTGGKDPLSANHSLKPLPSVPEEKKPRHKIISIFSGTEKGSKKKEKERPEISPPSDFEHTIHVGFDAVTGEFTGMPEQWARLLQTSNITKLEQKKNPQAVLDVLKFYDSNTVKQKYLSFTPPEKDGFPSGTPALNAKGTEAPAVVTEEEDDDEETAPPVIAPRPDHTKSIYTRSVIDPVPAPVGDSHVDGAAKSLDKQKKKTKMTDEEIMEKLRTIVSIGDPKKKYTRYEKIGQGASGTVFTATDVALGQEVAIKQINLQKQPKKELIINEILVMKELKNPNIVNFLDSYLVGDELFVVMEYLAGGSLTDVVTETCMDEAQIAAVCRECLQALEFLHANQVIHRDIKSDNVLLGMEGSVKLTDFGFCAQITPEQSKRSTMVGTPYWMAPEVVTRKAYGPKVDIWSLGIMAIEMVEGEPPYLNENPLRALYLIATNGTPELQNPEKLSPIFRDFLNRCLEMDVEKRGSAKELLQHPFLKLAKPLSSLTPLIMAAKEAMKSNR

Set 1 — SMILES: O=C(Nc1ccccc1)Nc1cccc(Oc2ccc3nccn3n2)c1; concentration: 1 µM
The remaining binding was 81% (Serine/threonine-protein kinase NIM1 (NIM1K, Homo sapiens, UniProt Q8IY84); binding).
For Serine/threonine-protein kinase 32B (STK32B, Homo sapiens, UniProt Q9NY57); binding: remaining binding read 71%.
Tyrosine-protein kinase JAK1 (JAK1, Homo sapiens, UniProt P23458); binding — remaining binding: 95%.
The remaining binding was 78% (Serine/threonine-protein kinase NLK (NLK, Homo sapiens, UniProt Q9UBE8); binding, competition with immobilised ligand).
Serine/threonine-protein kinase PAK 2 (PAK2, Homo sapiens, UniProt Q13177); binding — remaining binding: 100%.
It gave 100% for remaining binding (Cyclin-dependent kinase-like 3 (CDKL3, Homo sapiens, UniProt Q8IVW4); binding, competition with immobilised ligand).
For Ephrin type-A receptor 4 (EPHA4, Homo sapiens, UniProt P54764); cell-free binding: remaining binding read 100%.
The remaining binding was 91% (Ribosomal protein S6 kinase alpha-2, N-terminal kinase domain (RPS6KA2, Homo sapiens, UniProt Q15349); binding, competition with immobilised ligand).

Set 2 — effect on: binding; technique: competition with immobilised ligand; concentration: 1 µM
Compound: COc1cc(-c2nc3ccc(C(=O)NCCCN4CCN(c5cccc(C)c5C)CC4)cc3n2C2CCC2)cc(OC)c1OC
The remaining binding was 73% (Cyclin-dependent kinase-like 3 (CDKL3, Homo sapiens, UniProt Q8IVW4)).
Phosphatidylinositol 4-kinase beta (PI4KB, Homo sapiens, UniProt Q9UBF8) — remaining binding: 91%.
It gave 85% for remaining binding (Serine/threonine-protein kinase/endoribonuclease IRE1 (ERN1, Homo sapiens, UniProt O75460)).
It gave 89% for remaining binding (Serine/threonine-protein kinase 26 (STK26, Homo sapiens, UniProt Q9P289)).
Mast/stem cell growth factor receptor Kit (KIT, Homo sapiens, UniProt P10721, T670I/V559D) — remaining binding: 100%.
For Cyclin-dependent kinase-like 1 (CDKL1, Homo sapiens, UniProt Q00532): remaining binding read 66%.
The remaining binding was 100% (Homeodomain-interacting protein kinase 2 (HIPK2, Homo sapiens, UniProt Q9H2X6)).
Fibroblast growth factor receptor 3 (FGFR3, Homo sapiens, UniProt P22607, G697C) — remaining binding: 100%.

Mixed results
For COc1cc(C(=O)OCCCN2CCCN(CCCOC(=O)c3cc(OC)c(OC)c(OCc4ccc([N+](=O)[O-])cc4)c3)CC2)cc(OC)c1OC, the adenosine uptake was 0.553 and 0.644 (Equilibrative nucleoside transporter 1 (SLC29A1, Homo sapiens, UniProt Q99808, G154S); inhibitor; Xenopus oocytes expressing SLC29A1 G154S; unit not given, added: [3H]adenosine; reference: untreated).
Cn1cc(-c2cccc(CN3CCC4(CC3)COc3c4ccc4c3CN([C@H]3CCC(=O)NC3=O)C4=O)c2)cn1 — result for “terminal volume of distribution”: 3.43 L/kg (rats; intravenous, 1.02 mg/kg).

For quick reference, copied from above (set 1):
The remaining binding was 81% (Serine/threonine-protein kinase NIM1 (NIM1K, Homo sapiens, UniProt Q8IY84); binding).
For Serine/threonine-protein kinase 32B (STK32B, Homo sapiens, UniProt Q9NY57); binding: remaining binding read 71%.
Tyrosine-protein kinase JAK1 (JAK1, Homo sapiens, UniProt P23458); binding — remaining binding: 95%.
